# Results collected from several papers.
# Protocols differ between the studies behind these lines. Several values in a cell are separate wells, animals, samples, runs or records. ± gives the spread as reported.
# B1: IgG; V domains shown; VH QVQLVQSGAEVKKPGASVKVSCKASGYTFTNYGLSWVRQAPGQGLEWMGWISANNGDTNYGQEFQGRVTMTTDTSTSTAYMELRSLRSDDTAVYYCARDSSSSWARWFFDLWGRGTLVTVSS; VL SYVLTQPPSVSVAPGKTARITCGGNIIGSKLVHWYQQKPGQAPVLVIYDDGDRPSGIPERFSGSNSGNTATLTISRVEAGDEADYYCQVWDTGSDPVVFGGGTKLTVL
# B2: NR3C1 1-525 (Homo sapiens, UniProt P04150); pyrene label; chain MDSKESLTPGREENPSSVLAQERGDVMDFYKTLRGGATVKVSASSPSLAVASQSDSKQRRLLVDFPKGSVSNAQQPDLSKAVSLSMGLYMGETETKVMGNDLGFPQQGQISLSSGETDLKLLEESIANLNRSTSVPENPKSSASTAVSAAPTEKEFPKTHSDVSSEQQHLKGQTGTNGGNVKLYTTDQSTFDILQDLEFSSGSPGKETNESPWRSDLLIDENCLLSPLAGEDDSFLLEGNSNEDCKPLILPDTKPKIKDNGDLVLSSPSNVTLPQVKTEKEDFIELCTPGVIKQEKLGTVYCQASFPGANIIGNKMSAISVHGVSTSGGQMYHYDMNTASLSQQQDQKPIFNVIPPIPVGSENWNRCQGSGDDNLTSLGTLNFPGRTVFSNGYSSPSMRPDVSSPPSSSSTATTGPPPKLCLVCSDEASGCHYGVLTCGSCKVFFKRAVEGQHNYLCAGRNDCIIDKIRRKNCPACRYRKCLQAGMNLEARKTKKKIKGIQQATTGVSQETSENPGNKTIVPATL
# B3: PUX7 171-468 (Arabidopsis thaliana, UniProt Q94JZ8); chain LASLYRPPFHLMFQGSFEQAKTTSSSQDKWLLVNLQSTTEFSSHMLNRDTWANDAVSQTIKANFIFWQVYDDTTEGRKVCTYYKLESIPVVLVIDPTTGQRMRMWTGMVDPENLLEDLVPFMDGGPREHFASLSKKRPRGSFSLTPHSKPKEDVAKDEEEEELQRALAASLEDNNMKESSDDQSTIIPEEVAVEAVTSAVLPTFPPLPEEPKGGDRSLQCRVGIRLPNGQRLQRNFLKTDTIQLLWSFCYSQLEESERKKPLKLTQAIPGESKTLEYESNLTLEQSGVANSMISATWE
# B4: scFv; chain EVQLVQSGAGVKKPGSSVKVSCKSSGGTSGSSAVSWIRQAPGQGVEWMGGITSIFGPANYAQKFQDRLKITADKATNTVYMELSGLTFEDTAVYYCARVGDYNFWNGHYRSGYYFDLWGRGTLVTVSSGGGGSGGGGSGGGGSAQSVLTQPPSASGTPGQRVTISCSGSSSNIGSNTVNWYQQLPGTAPKLLIYSNTQRPSGVPDRFSGSKSATSASLAISGLQSEDEADYYCAAWDDSLNGHVVFGGGTKVTVLG
# B5: FLT3LG 27-185 (Homo sapiens, UniProt P49771); sequence looked up; chain TQDCSFQHSPISSDFAVKIRELSDYLLQDYPVTVASNLQDEELCGGLWRLVLAQRWMERLKTVAGSKMQGLLERVNTEIHFVTKCAFQPPPSCLRFVQTNISRLLQETSEQLVALKPWITRQNFSRCLELQCQPDSSTLPPPWSPRPLEATAPTAPQPP
# B6: CFH domains 1108-1231 W1183R (Homo sapiens, UniProt P08603); sequence looked up; chain KCGPPPPIDNGDITSFPLSVYAPASSVEYQCQNLYQLEGNKRITCRNGQWSEPPKCLHPCVISREIMENYNIALRRTAKQKLYSRTGESVEFVCKRGYRLSSRSHTLRTTCWDGKLEYPTCAKR
# UniProt P54609, sequence (whole entry, looked up): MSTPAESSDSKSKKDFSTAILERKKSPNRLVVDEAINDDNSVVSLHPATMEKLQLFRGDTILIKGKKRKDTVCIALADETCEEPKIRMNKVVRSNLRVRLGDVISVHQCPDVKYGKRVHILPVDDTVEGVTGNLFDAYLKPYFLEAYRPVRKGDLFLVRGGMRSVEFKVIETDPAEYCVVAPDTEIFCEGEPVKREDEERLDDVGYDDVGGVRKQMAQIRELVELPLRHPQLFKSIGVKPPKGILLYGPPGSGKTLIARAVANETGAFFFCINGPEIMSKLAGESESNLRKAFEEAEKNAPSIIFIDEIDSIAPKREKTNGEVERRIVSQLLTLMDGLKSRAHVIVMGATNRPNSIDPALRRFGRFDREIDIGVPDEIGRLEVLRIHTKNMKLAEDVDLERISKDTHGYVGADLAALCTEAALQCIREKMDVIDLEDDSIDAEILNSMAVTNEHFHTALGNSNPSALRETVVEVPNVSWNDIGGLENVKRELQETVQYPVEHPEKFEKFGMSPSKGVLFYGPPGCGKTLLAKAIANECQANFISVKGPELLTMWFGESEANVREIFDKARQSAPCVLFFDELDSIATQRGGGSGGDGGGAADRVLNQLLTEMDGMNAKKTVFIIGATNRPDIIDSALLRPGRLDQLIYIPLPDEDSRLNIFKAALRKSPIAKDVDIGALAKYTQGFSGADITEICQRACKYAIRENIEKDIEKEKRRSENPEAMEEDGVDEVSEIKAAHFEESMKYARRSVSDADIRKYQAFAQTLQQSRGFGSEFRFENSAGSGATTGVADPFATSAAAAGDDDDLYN
# UniProt Q99816, sequence (whole entry, looked up): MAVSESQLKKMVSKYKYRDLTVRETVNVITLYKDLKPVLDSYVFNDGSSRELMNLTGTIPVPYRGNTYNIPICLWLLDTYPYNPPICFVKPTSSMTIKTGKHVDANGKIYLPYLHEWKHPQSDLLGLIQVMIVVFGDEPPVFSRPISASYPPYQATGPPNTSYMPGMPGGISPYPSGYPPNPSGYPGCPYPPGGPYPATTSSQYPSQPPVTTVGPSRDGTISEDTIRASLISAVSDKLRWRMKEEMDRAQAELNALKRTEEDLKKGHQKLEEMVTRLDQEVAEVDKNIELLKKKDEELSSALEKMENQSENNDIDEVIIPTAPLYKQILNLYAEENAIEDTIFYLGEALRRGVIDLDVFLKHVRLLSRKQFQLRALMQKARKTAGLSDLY
# UniProt P25963, sequence (whole entry, looked up): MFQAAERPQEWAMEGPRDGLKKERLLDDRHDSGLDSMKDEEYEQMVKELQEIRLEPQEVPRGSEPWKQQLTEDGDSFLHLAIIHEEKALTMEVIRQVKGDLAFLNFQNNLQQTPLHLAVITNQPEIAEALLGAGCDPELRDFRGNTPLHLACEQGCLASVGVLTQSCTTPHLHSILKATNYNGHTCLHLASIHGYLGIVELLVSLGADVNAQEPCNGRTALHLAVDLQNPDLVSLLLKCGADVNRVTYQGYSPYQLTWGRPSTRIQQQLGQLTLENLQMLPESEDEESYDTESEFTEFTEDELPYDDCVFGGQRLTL
# UniProt Q9Y2K2, sequence (whole entry, looked up): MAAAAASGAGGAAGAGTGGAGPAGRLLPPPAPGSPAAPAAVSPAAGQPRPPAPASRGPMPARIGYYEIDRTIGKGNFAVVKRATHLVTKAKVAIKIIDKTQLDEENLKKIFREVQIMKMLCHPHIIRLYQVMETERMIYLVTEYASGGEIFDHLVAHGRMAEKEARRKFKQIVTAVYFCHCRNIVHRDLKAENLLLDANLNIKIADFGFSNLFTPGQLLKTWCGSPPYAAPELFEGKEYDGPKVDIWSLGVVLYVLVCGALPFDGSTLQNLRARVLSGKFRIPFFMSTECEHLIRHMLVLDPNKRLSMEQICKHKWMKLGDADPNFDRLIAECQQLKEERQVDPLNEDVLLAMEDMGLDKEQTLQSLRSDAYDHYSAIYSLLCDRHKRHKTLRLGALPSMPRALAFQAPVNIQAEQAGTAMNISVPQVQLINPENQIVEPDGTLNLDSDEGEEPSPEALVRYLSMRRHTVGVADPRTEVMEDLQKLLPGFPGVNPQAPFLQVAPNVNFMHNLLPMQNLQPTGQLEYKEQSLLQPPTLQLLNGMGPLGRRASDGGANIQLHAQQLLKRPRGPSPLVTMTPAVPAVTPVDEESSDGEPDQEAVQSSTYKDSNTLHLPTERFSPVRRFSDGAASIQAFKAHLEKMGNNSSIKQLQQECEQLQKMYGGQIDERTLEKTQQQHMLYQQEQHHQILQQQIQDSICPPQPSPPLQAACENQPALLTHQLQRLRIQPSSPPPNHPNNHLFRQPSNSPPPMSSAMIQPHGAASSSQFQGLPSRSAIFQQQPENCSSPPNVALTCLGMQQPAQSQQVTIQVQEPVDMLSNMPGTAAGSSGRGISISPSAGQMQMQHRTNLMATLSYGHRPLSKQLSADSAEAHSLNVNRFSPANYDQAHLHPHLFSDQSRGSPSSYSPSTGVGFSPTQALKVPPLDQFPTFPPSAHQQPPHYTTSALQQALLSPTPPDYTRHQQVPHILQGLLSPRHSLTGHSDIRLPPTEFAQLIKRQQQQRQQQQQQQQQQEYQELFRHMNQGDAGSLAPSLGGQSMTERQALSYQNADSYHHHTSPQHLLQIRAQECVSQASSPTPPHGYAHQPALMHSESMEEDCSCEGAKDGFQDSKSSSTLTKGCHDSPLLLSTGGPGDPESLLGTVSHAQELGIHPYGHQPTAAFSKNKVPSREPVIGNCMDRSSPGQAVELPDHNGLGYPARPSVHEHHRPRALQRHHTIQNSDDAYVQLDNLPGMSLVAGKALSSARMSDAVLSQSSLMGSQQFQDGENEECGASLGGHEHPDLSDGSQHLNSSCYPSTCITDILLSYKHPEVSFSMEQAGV
# UniProt P01024, sequence (whole entry, looked up): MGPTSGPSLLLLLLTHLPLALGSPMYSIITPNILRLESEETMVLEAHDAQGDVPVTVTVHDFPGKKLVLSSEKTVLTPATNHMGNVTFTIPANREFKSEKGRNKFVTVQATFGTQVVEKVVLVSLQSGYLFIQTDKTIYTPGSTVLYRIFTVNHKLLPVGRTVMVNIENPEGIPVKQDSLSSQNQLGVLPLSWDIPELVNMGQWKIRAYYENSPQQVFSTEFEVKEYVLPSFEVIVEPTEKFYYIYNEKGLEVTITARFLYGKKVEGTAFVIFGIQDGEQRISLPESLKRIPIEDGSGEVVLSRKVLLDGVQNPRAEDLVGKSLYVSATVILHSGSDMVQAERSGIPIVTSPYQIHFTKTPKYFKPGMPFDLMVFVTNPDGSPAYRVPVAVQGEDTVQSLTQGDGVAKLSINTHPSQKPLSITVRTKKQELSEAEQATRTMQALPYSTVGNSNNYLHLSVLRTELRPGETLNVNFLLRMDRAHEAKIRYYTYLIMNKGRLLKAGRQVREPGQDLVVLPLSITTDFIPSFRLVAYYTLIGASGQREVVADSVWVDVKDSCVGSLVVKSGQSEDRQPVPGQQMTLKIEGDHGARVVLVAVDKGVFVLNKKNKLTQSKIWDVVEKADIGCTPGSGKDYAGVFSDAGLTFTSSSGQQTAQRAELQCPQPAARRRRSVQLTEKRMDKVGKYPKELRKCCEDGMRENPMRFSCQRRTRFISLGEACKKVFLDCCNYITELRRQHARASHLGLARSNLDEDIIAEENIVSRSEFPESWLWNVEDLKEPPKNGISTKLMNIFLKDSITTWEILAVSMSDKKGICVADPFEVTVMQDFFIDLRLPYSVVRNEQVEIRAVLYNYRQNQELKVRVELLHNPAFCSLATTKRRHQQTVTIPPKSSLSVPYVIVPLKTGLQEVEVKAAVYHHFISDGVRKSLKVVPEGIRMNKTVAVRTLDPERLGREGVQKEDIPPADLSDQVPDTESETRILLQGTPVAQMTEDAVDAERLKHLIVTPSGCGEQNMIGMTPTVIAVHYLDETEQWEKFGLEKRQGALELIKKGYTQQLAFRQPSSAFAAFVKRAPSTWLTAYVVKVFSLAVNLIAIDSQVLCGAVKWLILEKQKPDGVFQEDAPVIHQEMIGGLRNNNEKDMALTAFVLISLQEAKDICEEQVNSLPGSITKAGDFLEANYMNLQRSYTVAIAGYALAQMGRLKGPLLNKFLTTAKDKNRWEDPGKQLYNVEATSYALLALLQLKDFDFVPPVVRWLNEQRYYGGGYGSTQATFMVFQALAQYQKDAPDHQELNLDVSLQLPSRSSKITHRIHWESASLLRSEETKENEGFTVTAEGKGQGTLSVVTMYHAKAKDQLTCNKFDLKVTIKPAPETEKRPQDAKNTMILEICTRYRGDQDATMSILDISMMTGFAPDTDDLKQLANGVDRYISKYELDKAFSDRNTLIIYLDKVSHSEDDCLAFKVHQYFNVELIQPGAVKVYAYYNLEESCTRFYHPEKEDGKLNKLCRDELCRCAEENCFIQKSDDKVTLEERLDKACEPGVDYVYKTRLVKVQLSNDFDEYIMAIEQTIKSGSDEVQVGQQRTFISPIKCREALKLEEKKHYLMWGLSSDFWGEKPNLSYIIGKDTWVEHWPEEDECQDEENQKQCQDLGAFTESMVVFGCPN
Substance,partner,technique,form,temperature,Kd
"petF ferredoxin (Synechocystis sp. PCC 6803, UniProt P27320)",narB D163E (Synechococcus sp. PCC 7942),UV-visible difference titration,,,16800 ± 2600 nM
"LPDTDDRHRIEEKRKRTYETFKSAMKKSPFNGP (Rela 289-321 I312A (Mus musculus, UniProt Q04207); sequence looked up)","NFKBIA 67-206 (Homo sapiens, UniProt P25963)",ITC,peptide,,540 ± 2 nM
"KLLITIHDRKEFAKFEKERARAKWDTANNPLYKEATSTFTNITYRGT (ITGB3 742-788 E732K (Homo sapiens, UniProt P05106); sequence looked up)","Tln1 309-405 (Mus musculus, UniProt P26039)",NMR titration,,,538000 nM
B1 (IgG),IL13 fragment (Homo sapiens),SPR,antibody,,0.063 nM
B2 (NR3C1 1-525),"TSG101 229-304 coiled coil, pyrene label (Homo sapiens, UniProt Q99816)",fluorescence anisotropy,,,34000 nM
B3 (PUX7 171-468),"CDC48A 1-463 (Arabidopsis thaliana, UniProt P54609)",ITC,,10 °C,5300 ± 400 nM
B4 (scFv),"SIK3 59-385 (Homo sapiens, UniProt Q9Y2K2)",SPR,scFv,,< 1000 nM
B5 (FLT3LG 27-185),"FLT3 27-543 (Homo sapiens, UniProt P36888)",SPR,,,46.3 nM
EAEEPSLLKKLLLAPANTQ (PPARGC1A peptide; N-terminal 5-FAM),"PPARG 202-477 (Homo sapiens, UniProt P37231-2)",FP,peptide,,425 nM and 1250 nM
GSGVTQTTKCCYSLEFHQ (designed peptide),"ERBB2 23-652 (Homo sapiens, UniProt P04626)",ELISA,peptide,,1600 ± 400 nM
B6 (CFH domains 1108-1231 W1183R),"C3 996-1303 (Homo sapiens, UniProt P01024)",SPR,,,4900 ± 400 nM

# For quick reference, copied from above:
Substance,partner,technique,form,temperature,Kd
B4 (scFv),"SIK3 59-385 (Homo sapiens, UniProt Q9Y2K2)",SPR,scFv,,< 1000 nM
B5 (FLT3LG 27-185),"FLT3 27-543 (Homo sapiens, UniProt P36888)",SPR,,,46.3 nM
